Published values pooled from the literature.
Each line is one published result; not all experiments were run side by side.

CCn1cc(C(=O)N2CCOCC2)c(=O)c2cc(NC3Cc4ccccc4C3)cnc21
Cmax (human, fed; oral suspension, 2000 mg/day twice daily, day 8, arithmetic mean): 3080 ng/mL

CN1C(=O)[C@@H](NC(=O)c2nnc(Cc3ccccc3)[nH]2)COc2cccnc21
Cmax (healthy human, fasted, plasma; oral, 800 mg single dose, geometric mean): 6120 ng/mL

O=C(O)CCC(=O)O.[2H]C([2H])([2H])Oc1cc(C)c2[nH]ccc2c1CN1CC[C@@H](C2CC2)C[C@H]1c1ccc(C(=O)O)cc1
Cmax (human, plasma; 50 mg twice daily, day 10, multiple ascending dose, geometric mean): 2560 ng/mL

C[C@@H]1CCO[C@H]2Cn3cc(C(=O)NCc4ccc(F)cc4F)c(=O)c(O)c3C(=O)N12
Cmax (human paediatric patients, weight sample B to under sample C kg, plasma; oral, 30 mg dispersible tablet, steady state, geometric mean, population PK post-hoc, N 5): 6250 ng/mL

C=CC(=O)N(C)CCOc1c(N)ncnc1-c1cc(F)cc(NC(=O)c2ccc(C3CC3)cc2F)c1C
Cmax (human, whole blood; oral, 25 mg once daily, day 1): 40.9 ng/mL

Cl.[2H]C([2H])([2H])CC(=O)c1cnc(NC(=O)C2CC2)cc1Nc1cccc(-c2ncn(C([2H])([2H])[2H])n2)c1OC
Cmax (geometric mean; human; oral, 20 mg once daily, day 7, fasted, liquid, multiple dose): 183 ng/mL

C[C@@H](Nc1cc(F)cc(F)c1)c1cc(C(=O)N(C)C)cc2c(=O)cc(N3CCOCC3)oc12
Cmax (human; oral, 120 mg twice daily, vistusertib alone, geometric LSM): 982 ng/mL

COc1ncc(-c2nc3c(n2C(C)C)[C@H](c2ccc(Cl)cc2)N(c2cc(Cl)cn(C)c2=O)C3=O)c(OC)n1
Cmax (LC-MS/MS, noncompartmental; human, plasma; oral, 150 mg, C2D1, high-dose, geometric mean): 1430 ng/mL

CCN1CCN(Cc2ccc(Nc3ncc(F)c(-c4cc(F)c5nc6n(c5c4)[C@H](C)CCC6)n3)nc2)CC1
Cmax (human, plasma; 50 mg multiple dosing, mean): 92 ng/mL

CCOc1c([C@H](C)n2nc(C)c3c(N)ncnc32)cc(Cl)c(F)c1[C@@H]1CNC(=O)C1
Cmax (human patients, plasma; oral, 20 mg, day 1): 1620 nM

CC(C)[C@H](N)C(=O)NCCCS(=O)(=O)O
Cmax (human both sexes, plasma; oral, 171 mg once daily, day 1, fasted capsule): 5550 ng/mL

Excerpt of the above:
COc1ncc(-c2nc3c(n2C(C)C)[C@H](c2ccc(Cl)cc2)N(c2cc(Cl)cn(C)c2=O)C3=O)c(OC)n1
Cmax (LC-MS/MS, noncompartmental; human, plasma; oral, 150 mg, C2D1, high-dose, geometric mean): 1430 ng/mL
